# Measured values of several laboratories.
# A part holds a random share of what one study measured.
# Sequence of UniProt Q52WX2 (whole entry, looked up): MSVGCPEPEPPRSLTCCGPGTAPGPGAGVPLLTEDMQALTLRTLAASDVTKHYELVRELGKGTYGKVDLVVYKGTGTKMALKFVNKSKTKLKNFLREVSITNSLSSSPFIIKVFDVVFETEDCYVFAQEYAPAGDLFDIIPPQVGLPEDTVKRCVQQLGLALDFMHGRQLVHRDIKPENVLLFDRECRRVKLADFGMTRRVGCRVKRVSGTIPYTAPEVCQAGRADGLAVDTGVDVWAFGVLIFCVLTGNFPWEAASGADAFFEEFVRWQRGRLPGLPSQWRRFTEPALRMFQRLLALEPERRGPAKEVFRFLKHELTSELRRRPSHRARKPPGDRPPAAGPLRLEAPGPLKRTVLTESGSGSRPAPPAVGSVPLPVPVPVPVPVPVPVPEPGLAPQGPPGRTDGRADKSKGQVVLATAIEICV
# Sequence of UniProt Q15349 (whole entry, looked up): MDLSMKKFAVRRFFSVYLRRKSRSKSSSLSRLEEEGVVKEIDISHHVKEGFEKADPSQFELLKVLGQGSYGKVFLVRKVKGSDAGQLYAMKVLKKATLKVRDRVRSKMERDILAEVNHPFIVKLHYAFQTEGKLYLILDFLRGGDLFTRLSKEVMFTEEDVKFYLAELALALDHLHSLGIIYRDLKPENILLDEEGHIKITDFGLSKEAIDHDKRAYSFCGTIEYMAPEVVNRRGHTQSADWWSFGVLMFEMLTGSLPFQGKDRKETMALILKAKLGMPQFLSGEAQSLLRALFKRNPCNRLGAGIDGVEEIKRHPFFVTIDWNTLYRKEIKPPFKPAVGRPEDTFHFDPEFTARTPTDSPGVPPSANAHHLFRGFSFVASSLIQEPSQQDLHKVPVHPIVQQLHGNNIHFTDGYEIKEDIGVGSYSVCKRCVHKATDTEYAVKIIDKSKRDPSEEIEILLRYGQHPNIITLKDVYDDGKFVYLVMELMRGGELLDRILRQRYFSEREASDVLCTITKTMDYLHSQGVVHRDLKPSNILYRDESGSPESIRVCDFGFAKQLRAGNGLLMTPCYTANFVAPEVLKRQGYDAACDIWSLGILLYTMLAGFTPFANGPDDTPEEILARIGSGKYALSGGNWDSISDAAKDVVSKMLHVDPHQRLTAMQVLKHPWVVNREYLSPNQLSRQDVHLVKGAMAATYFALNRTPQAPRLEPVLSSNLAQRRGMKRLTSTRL
# Sequence of UniProt Q96L34 (whole entry, looked up): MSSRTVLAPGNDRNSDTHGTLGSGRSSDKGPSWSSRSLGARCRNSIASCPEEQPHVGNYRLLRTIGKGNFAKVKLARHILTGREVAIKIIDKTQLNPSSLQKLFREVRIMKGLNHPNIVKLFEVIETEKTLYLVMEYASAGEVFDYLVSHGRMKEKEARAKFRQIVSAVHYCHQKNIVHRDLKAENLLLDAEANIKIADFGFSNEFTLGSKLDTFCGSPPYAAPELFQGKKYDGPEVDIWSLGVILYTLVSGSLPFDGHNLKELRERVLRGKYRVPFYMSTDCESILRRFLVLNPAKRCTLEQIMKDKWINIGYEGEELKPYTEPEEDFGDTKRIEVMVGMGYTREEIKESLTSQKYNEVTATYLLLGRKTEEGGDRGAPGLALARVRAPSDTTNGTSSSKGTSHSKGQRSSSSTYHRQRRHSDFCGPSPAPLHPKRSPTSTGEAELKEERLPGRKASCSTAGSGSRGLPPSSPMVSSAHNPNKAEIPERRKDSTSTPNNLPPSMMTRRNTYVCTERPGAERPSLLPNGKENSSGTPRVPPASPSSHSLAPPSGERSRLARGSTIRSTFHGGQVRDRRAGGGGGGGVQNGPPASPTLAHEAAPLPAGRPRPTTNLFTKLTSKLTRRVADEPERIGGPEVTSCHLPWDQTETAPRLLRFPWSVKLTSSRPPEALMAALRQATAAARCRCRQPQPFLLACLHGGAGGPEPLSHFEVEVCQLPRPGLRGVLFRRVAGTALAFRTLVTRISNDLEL
# Sequence of UniProt Q8N752 (whole entry, looked up): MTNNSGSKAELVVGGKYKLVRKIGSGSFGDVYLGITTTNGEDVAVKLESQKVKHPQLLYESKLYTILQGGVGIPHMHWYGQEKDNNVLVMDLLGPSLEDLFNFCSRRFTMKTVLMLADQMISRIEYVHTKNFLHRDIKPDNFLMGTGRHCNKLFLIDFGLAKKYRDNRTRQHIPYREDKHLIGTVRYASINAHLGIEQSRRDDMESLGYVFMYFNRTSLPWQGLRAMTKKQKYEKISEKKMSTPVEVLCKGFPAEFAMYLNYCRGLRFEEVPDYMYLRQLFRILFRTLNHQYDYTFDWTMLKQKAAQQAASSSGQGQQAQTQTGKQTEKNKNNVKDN
# Sequence of UniProt P29597 (whole entry, looked up): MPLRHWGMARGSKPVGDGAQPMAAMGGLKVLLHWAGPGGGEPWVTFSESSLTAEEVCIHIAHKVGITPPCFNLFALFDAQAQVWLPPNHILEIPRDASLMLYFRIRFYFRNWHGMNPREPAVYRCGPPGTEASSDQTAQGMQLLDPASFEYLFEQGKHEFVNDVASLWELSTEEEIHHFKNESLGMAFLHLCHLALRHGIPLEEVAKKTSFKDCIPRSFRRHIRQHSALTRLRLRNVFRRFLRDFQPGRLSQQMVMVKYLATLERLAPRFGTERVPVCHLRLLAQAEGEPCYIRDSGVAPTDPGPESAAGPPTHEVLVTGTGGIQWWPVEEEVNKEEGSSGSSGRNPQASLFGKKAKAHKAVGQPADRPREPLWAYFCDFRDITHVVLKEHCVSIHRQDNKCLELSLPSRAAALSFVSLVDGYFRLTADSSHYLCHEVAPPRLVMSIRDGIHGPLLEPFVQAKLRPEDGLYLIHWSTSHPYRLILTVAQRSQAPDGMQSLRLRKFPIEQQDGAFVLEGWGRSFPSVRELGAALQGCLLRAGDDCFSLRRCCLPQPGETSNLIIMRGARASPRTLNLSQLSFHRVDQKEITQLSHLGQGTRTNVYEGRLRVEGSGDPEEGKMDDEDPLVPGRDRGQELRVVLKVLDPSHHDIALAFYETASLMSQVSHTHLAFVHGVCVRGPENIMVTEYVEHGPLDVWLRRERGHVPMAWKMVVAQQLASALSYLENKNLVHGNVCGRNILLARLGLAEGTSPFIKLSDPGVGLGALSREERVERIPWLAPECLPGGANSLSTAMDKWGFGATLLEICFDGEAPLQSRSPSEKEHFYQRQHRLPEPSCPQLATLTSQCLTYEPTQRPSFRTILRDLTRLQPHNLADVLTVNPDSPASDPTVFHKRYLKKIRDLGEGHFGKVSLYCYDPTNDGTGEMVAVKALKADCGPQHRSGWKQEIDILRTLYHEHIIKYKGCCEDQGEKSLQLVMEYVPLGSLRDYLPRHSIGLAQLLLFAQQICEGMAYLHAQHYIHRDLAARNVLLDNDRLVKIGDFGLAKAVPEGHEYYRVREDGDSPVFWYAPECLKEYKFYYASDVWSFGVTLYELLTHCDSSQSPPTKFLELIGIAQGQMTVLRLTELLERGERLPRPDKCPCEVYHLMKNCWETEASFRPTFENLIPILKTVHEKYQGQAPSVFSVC
# Sequence of UniProt O75460 (whole entry, looked up): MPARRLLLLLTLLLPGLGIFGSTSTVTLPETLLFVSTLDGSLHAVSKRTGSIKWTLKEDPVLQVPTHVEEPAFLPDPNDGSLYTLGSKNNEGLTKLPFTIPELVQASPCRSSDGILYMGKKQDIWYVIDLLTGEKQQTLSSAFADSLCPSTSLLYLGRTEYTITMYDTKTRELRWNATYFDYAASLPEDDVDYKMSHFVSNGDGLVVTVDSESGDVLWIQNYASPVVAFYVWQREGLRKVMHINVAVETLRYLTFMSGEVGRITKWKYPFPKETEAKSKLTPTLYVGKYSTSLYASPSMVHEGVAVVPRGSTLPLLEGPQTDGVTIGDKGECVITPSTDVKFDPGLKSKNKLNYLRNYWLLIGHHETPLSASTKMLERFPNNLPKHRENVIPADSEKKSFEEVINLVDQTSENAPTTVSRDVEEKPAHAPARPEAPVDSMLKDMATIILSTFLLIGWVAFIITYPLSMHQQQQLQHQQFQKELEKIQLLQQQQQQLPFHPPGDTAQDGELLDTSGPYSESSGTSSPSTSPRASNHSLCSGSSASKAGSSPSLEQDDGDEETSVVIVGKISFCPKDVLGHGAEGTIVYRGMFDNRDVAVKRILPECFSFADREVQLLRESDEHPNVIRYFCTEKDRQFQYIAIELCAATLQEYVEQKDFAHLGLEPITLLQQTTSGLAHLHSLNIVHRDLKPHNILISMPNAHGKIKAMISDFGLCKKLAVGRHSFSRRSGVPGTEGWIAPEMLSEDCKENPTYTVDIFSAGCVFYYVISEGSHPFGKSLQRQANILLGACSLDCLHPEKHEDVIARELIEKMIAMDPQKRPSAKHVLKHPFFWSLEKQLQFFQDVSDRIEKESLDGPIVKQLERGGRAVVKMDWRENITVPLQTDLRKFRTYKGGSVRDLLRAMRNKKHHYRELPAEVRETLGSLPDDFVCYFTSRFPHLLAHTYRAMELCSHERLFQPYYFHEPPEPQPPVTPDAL

# Series 1 — cell line: mouse MPNST tumor cells; technique: high-content nuclear imaging; item: cell number; tested at: 10 µM; time: 12 h; notes: mean of 2 replicates; relative to: plate mean; reading: higher = more cells
Compound,nuclei count [z-score]
NS(=O)(=O)c1cccc2c1c([N+](=O)[O-])cc1nc(O)c(O)nc12,-0.481
COc1ccc(C#Cc2ccc(C(=O)N3CCC[C@@H](O)C3)c(F)c2)cc1,-0.0105
COCc1ccc(-c2cc3c(N[C@@H](C)c4ccn(C)n4)c(C(N)=O)cnc3cc2F)cn1,2.63
C[C@]12C=CC(=O)N[C@@H]1CC[C@@H]1[C@@H]2CC[C@]2(C)[C@@H](C(=O)Nc3cc(C(F)(F)F)ccc3C(F)(F)F)CC[C@@H]12,2.87

# Series 2 — technique: KINOMEscan; tested at: 10 µM; relative to: DMSO control; reading: lower = stronger binding
# Structure (SMILES): COc1cc(C(=O)N2CCC(N3CCN(C)CC3)CC2)ccc1Nc1ncc2c(n1)N(C)c1ccccc1C(=O)N2C
target,binding [%]
MAP3K15,69
RIPK5,16
PIM1,100
DAPK3,67

# Series 3 — read-out: enzyme activity; mode: inhibitor; tested at: 0.5 µM; relative to: control
# Target: Serine/threonine-protein kinase 24 (STK24, Homo sapiens, UniProt Q9Y6E0)
# Sequence of UniProt Q9Y6E0 (whole entry, looked up): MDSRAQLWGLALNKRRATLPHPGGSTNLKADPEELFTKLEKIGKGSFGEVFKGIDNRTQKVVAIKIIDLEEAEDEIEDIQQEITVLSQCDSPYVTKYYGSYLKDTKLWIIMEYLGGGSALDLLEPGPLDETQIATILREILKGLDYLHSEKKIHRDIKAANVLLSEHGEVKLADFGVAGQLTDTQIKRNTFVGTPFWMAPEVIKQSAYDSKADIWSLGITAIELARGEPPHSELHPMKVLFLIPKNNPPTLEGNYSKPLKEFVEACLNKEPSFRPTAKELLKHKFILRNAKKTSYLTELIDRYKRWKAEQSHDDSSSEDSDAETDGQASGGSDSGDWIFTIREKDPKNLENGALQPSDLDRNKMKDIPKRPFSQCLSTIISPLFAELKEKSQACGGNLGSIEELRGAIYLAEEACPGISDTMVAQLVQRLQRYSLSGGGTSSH
Structure (SMILES),remaining activity
COc1cc2ncnc(Nc3ccc(O)c(Br)c3)c2cc1OC,91.7%
c1ccc(-c2[nH]ncc2-c2ccnc3ccccc23)nc1,96.8%
COc1cc2c(cc1OC)-c1[nH]nc(Nc3cccc(F)c3)c1C2,99.9%
C[C@@H]1CCN(C(=O)CC#N)C[C@@H]1N(C)c1ncnc2[nH]ccc12,96.1%
Cn1nc2c3c(cccc31)C(=O)c1ccccc1-2,98.6%
CN(C)C[C@H]1CCn2c(c(C3=C(c4cn(C)c5ccccc45)C(=O)NC3=O)c3ccccc32)C1,66.5%
O=C1C(Cl)=C(N2C(=O)CCC2=O)C(=O)c2ccccc21,87%
N#C/C(=C\c1ccc(O)c(O)c1)C(=O)NCc1ccccc1,100%
Ic1cccc(CSc2nnc(-c3ccncc3)o2)c1,108%
Cc1nc2cc3nc(-c4cccs4)cnc3cc2n1C,103%
CCN(CC)CCNC(=O)c1c(C)[nH]c(/C=C2\C(=O)Nc3ccc(Cl)cc32)c1C,22.2%

# Series 4 — technique: competition with immobilised ligand; tested at: 1 µM
# Structure (SMILES): CN(C)C(=O)Cn1cc(-c2nc(C3(c4ccc(-c5cnc(N)nc5)cc4)CC3)no2)cn1
target,test,remaining binding [%]
"DMPK (Homo sapiens, UniProt Q09013)",cell-free assay,82
"MARK4 (Homo sapiens, UniProt Q96L34)",cell-free assay,96
"CSNK1A1L (Homo sapiens, UniProt Q8N752)",cell-free assay,98
"FLT3 (Homo sapiens, UniProt P36888, D835H)",cell-free assay,93
"HASPIN (Homo sapiens, UniProt Q8TF76)",cell-free assay,74
"Ribosomal protein S6 kinase alpha-2, N-terminal kinase domain (RPS6KA2, Homo sapiens, UniProt Q15349)",cell-free assay,100
"Non-receptor tyrosine-protein kinase TYK2, JH1 (TYK2, Homo sapiens, UniProt P29597)",cell-free assay,100
"TTK (Homo sapiens, UniProt P33981)",cell-free assay,100
"EPHA8 (Homo sapiens, UniProt P29322)",cell-free assay,87
"SRC (Homo sapiens, UniProt P12931)",cell-free assay,84
"ERN1 (Homo sapiens, UniProt O75460)",cell-free assay,69
"TXK (Homo sapiens, UniProt P42681)",binding,98
"CDK13 (Homo sapiens, UniProt Q14004)",cell-free assay,91
"EGFR (Homo sapiens, UniProt P00533, del746-750)",cell-free assay,67
"WNK3 (Homo sapiens, UniProt Q9BYP7)",cell-free assay,87
"MELK (Homo sapiens, UniProt Q14680)",cell-free assay,92
"CDC42BPB (Homo sapiens, UniProt Q9Y5S2)",cell-free assay,85
"SBK1 (Homo sapiens, UniProt Q52WX2)",cell-free assay,83

# Other studies, line by line — sample: plasma
Compound,test system,conditions,quantity,result
CNC(=O)c1ccc(-c2cnn3ccc(C(=O)N(C[C@H]4CCC(=O)O4)c4ccc(OC(F)(F)F)cc4)cc23)cc1,female C57BL/6 mouse,"oral, 10 mg/kg, 4 h",concentration,3.1 nM
O=C1CCC(N2Cc3cc(C4CCN(Cc5ccccc5)CC4)ccc3C2=O)C(=O)N1 (stereo not drawn),"ICR mouse, male","intravenous, 1.0 mg/kg",Vss,9.39 L/kg
